Experimental data pooled from the literature.
Each numbered part is a random draw from the data of one study; scales do not carry over between parts. “And” joins repeats or separate records; there may be more than shown.
Chain of UniProt P18089 (whole entry, looked up): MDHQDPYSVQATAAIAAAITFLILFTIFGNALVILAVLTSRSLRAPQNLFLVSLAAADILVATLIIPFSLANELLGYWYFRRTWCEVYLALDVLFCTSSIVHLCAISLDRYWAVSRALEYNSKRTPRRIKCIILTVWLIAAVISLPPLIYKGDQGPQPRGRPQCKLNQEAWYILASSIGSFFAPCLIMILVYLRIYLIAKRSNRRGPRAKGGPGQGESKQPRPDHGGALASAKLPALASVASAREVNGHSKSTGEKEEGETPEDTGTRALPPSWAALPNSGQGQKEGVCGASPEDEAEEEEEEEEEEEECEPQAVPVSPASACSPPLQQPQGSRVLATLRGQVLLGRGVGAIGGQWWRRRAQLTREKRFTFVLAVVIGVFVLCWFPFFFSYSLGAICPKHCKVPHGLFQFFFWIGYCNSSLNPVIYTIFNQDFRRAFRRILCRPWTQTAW
Chain of UniProt Q2M2I8 (whole entry, looked up): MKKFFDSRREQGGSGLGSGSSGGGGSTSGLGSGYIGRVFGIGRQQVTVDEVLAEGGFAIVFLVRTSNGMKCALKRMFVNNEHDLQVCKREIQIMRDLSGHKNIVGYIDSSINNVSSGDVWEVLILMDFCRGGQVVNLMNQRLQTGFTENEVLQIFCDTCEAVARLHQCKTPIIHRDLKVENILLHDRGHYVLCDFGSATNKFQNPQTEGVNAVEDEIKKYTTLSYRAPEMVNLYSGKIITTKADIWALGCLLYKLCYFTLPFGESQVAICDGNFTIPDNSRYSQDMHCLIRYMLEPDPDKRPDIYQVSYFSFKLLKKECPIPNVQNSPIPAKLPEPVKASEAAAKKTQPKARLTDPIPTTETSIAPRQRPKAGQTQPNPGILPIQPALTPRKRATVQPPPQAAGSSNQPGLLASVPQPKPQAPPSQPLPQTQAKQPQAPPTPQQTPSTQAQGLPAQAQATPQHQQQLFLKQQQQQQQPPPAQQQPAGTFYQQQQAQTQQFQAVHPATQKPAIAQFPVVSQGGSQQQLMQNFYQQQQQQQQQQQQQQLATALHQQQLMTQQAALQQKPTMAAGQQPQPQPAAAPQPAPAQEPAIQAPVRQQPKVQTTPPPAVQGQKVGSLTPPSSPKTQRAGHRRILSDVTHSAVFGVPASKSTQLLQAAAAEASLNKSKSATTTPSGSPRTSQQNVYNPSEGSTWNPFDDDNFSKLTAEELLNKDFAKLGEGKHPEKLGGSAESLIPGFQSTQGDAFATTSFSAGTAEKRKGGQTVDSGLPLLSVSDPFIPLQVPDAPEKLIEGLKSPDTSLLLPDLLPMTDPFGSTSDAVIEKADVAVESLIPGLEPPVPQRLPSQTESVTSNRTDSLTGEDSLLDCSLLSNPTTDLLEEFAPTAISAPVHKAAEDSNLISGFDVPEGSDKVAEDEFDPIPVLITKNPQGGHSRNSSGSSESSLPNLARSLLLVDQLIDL

Study 1 — organism: Sarcocystis neurona; read-out: parasite growth; concentration: concentration not given; notes: secondary screen; endpoint: inhibition
CN1CCC(=C2c3ccccc3CCc3sccc32)CC1.O=C(O)/C=C\C(=O)O: -24.8%
Cc1sc(N)c(C(=O)c2cccc(C(F)(F)F)c2)c1C: -15.9%
Cc1cccc(CCN2CCC(C(=O)c3ccc(NS(C)(=O)=O)cc3)CC2)n1.Cl.Cl: -9.2%
CCOC(=O)c1ccc(OC(=O)CCCCCN=C(N)N)cc1.CS(=O)(=O)O: -21.2%
CN(CCOc1ccc(CC2SC(=O)NC2=O)cc1)c1ccccn1.Cl (centres unmarked): 0.24%
O=C(O)c1cc2ccccc2c(Cc2c(O)c(C(=O)O)cc3ccccc23)c1O.OCCOCCN1CCN(C(c2ccccc2)c2ccc(Cl)cc2)CC1: -11.3%
CN(C)CCC=C1c2ccccc2CCc2ccccc21.Cl: -13.1%
Cl.O.O=C1N(c2ccccc2)c2ccccc2C1(Cc1ccncc1)Cc1ccncc1: -23.4%
CN1[C@@H](CC(=O)c2ccccc2)CCC[C@H]1C[C@H](O)c1ccccc1.Cl: -24.9%
CC[N+](C)(CC)CCOC(=O)C(O)(c1ccccc1)C1CCCCC1.[Br-] (centres unmarked): -26.1%
CN1[C@@H]2CC[C@H]1C[C@@H](OC(c1ccccc1)c1ccccc1)C2.CS(=O)(=O)O: -22.8%
COc1nc(C)nc(Cl)c1NC1=NCCN1.Cl: -39%
CC(CN1c2ccccc2Sc2ccccc21)N(C)C.Cl (centres unmarked): -42.6%

Study 2 — host: mouse; sample: microsomes or S9; concentration: 2 µM; time: 0.5 h; endpoint: remaining compound
O=C(Nc1ccc(Nc2ccc(-n3cccn3)nn2)cc1)c1cccc(Cl)c1: 57.2%
Cc1csc(N2N=C(c3ccccc3)CC2c2ccccc2C)n1 (centres unmarked): 0.0648%
COc1ccc(COc2ncnc3sc(C)c(C)c23)cc1F: 1.74%
Cc1cc(N2CCC(C(=O)NC(C)(C)C)CC2)nc(Nc2ccc(C#N)c(C(F)(F)F)c2)n1: 16.6%
Cn1c(Cc2ccccc2)c(-c2ccccc2)c(=O)n1C: 17.9%
CCc1c(C)nc2cc(-c3cc(OC)cc(OC)c3)nn2c1NCCN(CC)CC: 2.87%
COCCNC(=O)c1ccc(-n2ncc(C(=O)OC)c2N)cc1: 66.8%
Cc1ncc(-c2ccc(C)c(S(=O)(=O)NC(C)(C)C)c2)o1: 5.47%

Study 3 — read-out: enzyme activity; action: inhibitor; concentration: 0.5 µM; reference: control; endpoint: remaining activity
Target: NUAK family SNF1-like kinase 1 (NUAK1, Homo sapiens, UniProt O60285)
Chain of UniProt O60285 (whole entry, looked up): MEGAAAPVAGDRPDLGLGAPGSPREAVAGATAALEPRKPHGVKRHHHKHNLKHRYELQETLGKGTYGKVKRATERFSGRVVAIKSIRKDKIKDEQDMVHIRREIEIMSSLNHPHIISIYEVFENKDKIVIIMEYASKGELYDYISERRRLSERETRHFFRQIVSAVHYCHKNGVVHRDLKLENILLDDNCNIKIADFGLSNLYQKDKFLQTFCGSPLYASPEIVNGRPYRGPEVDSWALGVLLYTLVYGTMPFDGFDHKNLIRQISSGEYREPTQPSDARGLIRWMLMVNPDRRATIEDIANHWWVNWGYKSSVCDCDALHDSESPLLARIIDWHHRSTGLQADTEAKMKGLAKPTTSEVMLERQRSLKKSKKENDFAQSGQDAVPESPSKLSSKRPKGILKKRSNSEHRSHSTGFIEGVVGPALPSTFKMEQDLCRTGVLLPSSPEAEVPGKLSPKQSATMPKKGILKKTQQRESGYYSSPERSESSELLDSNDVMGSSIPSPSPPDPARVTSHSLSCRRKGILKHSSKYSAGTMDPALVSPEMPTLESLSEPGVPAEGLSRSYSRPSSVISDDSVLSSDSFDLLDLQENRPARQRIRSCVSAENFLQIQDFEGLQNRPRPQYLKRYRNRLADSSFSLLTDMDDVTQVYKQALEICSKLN
O=S(=O)(NCCNC/C=C/c1ccc(Br)cc1)c1cccc2cnccc12: 32.8%
Cc1cc(Nc2nc(-c3ccccc3)nc3ccccc23)n[nH]1: 3.88%
O=C1Cc2c([nH]c3ccc([N+](=O)[O-])cc23)-c2ccccc2N1: 12%
CC#CC(=O)Nc1cc2c(Nc3ccc(F)c(Cl)c3)ncnc2cn1: 98.1%
Nc1ncnc2c1cnn2-c1ccccc1: 93.2%
N#CC(=C(N)Sc1ccc(N)cc1)c1ccccc1C(F)(F)F: 95.9%
NC(=O)c1ccc(N(C(N)=O)c2c(F)cccc2F)nc1-c1ccc(F)cc1F: 108%
COc1cc(Nc2c(C#N)cnc3cc(OCCCN4CCN(C)CC4)c(OC)cc23)c(Cl)cc1Cl: 11.4%
Cc1cncc2cccc(S(=O)(=O)N3CCCN(C(=O)CN)C[C@@H]3C)c12: 91.1%
CC[n+]1c(/C=C/N(C)c2ccccc2)n(-c2ccccc2)c2ccc(-c3nc4ccccc4s3)cc21: 96.1%
Fc1ccc(-c2nc3n(c2-c2ccncc2)CCS3)cc1: 98.6%
Nc1nc(Nc2ccc(S(N)(=O)=O)cc2)nn1C(=O)c1c(F)cccc1F: 3.29%
CC(=O)c1ccc(N2CCOCC2)cc1O: 92.8%
CCc1[nH]c(-c2ccc(OC)cc2)nc1-c1ccncc1: 92.8%
CCCC(=O)Oc1ccc2[nH]c(C(=O)c3cc4ccccc4[nH]3)cc2c1: 94%
CSc1nc(-c2ccnc(N[C@@H](C)c3ccccc3)c2)c(-c2ccc(F)cc2)[nH]1 (racemic): 94.3%
Oc1ccc(Nc2nc(-c3ccc(Cl)cc3)cs2)cc1: 90.7%
Cc1ccc(NC2=CC(=O)c3sc(C)nc3C2=O)cc1: 93%
CC(C)(C)n1nc(Cc2cccc3ccccc23)c2c(N)ncnc21: 98.8%
COc1ccc(S(=O)(=O)N(CCO)c2ccccc2CN(C)CC=Cc2ccc(Cl)cc2)cc1: 96.5%
Nc1nccc(-c2c(-c3ccc(F)cc3)ncn2C2CCNCC2)n1: 98.4%
O=C1NC(=O)C(c2c[nH]c3ccccc23)=C1c1c[nH]c2ccccc12: 78.5%

Mixed results
C[C@@H]1CN(c2cc(-c3nn(C)c4ccc(OC5(C)CC5)cc34)ncn2)C[C@H](C)O1 — increased mitochondrial mass (U2OS, HEK293T, MRC-9; high-content imaging; concentration not given, 24 h, recommended concentration, one cell line): > 50%
C[C@H](c1cccc(C#N)c1)n1cc(Cl)cc(C(N)=O)c1=N — Ki (Alpha-2B adrenergic receptor (ADRA2B, Homo sapiens, UniProt P18089); binder, radioligand binding): 516 nM
N#CC1(c2ccccn2)CCN(Cc2cc(C(=O)O)c(=O)n3ccccc23)CC1 — remaining binding (AP2-associated protein kinase 1 (AAK1, Homo sapiens, UniProt Q2M2I8); binding; 1 µM): 100%
Cn1cncc1[C@@](O)(COc1ccc(C#N)cc1-c1ccc(OC(F)(F)F)cc1)c1ccc(C#N)cc1 — normal cells (HEK293T; high-content imaging; 10 µM, 0 h): 93.4% and 85.1%
